# Measured values gathered from unrelated publications.
# Lines come from different studies, so protocols differ. ± marks the error that the study gave.
SMILES,assay,test system,setting,scale,measurement,value
COC(=O)c1ccc([C@@H]2COC[C@H](c3ccc(Cl)cc3)N2)cc1,"shake-flask, LC-HRMS",aqueous buffer,"16 h, pH 6.8",,solubility,< 4 µM
CN(C)C/C=C/C(=O)Nc1cc2c(Nc3ccc(F)c(Cl)c3)ncnc2cc1O[C@H]1CCOC1,,water,"24 h, with: SBE-β-CD 200 mM",reference: with over without SBE-β-CD,solubility enhancement,~37 fold
Clc1cc(Cl)cc([C@@H]2COC[C@]3(CCOc4ccccc43)N2)c1,"shake-flask, LC-HRMS",aqueous buffer,"16 h, pH 6.8",,solubility,< 4 µM
CC1(CNC(=O)[C@H](CN)NC(=O)c2ccc(-c3ccc(Br)cc3)cc2)NC(=O)NC1=O (stereo partly drawn),,aqueous buffer,pH 7.4,,solubility,198 µg/mL
C[C@H]1OC[C@@H](c2ccc(-c3ccccn3)cc2)N[C@@H]1c1ccc(F)cc1Cl,"shake-flask, LC-HRMS",aqueous buffer,"16 h, pH 6.8",,solubility,< 4 µM
Cc1nc(N)sc1-c1ccnc(Nc2ccc(N(C)C)cc2)n1,,aqueous buffer,pH 7.4,,solubility,< 1.17 µg/mL
CN(CCCNC(=O)c1cccc(C(=O)O)c1)CCCNC(=O)c1cc(NC(=O)c2cc(NC(=O)c3cc(NC(=O)c4cc(NC(=O)C[C@H](CNC(=O)c5cc(NC(=O)c6cc(NC(=O)c7nc(NC(=O)c8nccn8C)cn7C)cn6C)cn5C)NC(=O)c5ccccc5)cn4C)cn3C)cn2C)cn1C,HPLC after centrifugation,0.1% DMSO in PBS,"2 h, 25 °C, with: 50 mM hydroxypropyl-β-cyclodextrin",reference: without cyclodextrin,solubility increase,> 50 fold
Clc1ccc([C@H]2COC[C@@H](c3ccc(-c4ccccn4)cc3)N2)cc1,"shake-flask, LC-HRMS",aqueous buffer,"16 h, pH 6.8",,solubility,< 4 µM
C[C@@H](O)[C@H](NC(=O)c1ccc(C#Cc2ccccc2)cc1)C(=O)NCC1(C)NC(=O)NC1=O (stereo partly drawn),,aqueous buffer,pH 7.4,,solubility,230 µg/mL
Nc1nc2c(ncn2COCCO)c(=O)[nH]1,shake-flask,methanol-ethanol mixture,"298.2 K, mass fraction 0.4",,solubility,520 µg/mL
COc1ccc(NC(=O)CSc2nnnn2C)cc1,,aqueous buffer,pH 7.4,,solubility,22.2 µg/mL
O=C(Nc1ccc(OC(F)(F)F)cc1)N[C@H]1CC[C@H](Oc2ccc(C(=O)O)cc2)CC1,,deionised water,"5 min, pH 6.6, 37 °C, non-sink dissolution",,solubility,0.364 ± 0.0427 µg/mL

# Some of these lines once more:
SMILES,assay,test system,setting,scale,measurement,value
CC1(CNC(=O)[C@H](CN)NC(=O)c2ccc(-c3ccc(Br)cc3)cc2)NC(=O)NC1=O (stereo partly drawn),,aqueous buffer,pH 7.4,,solubility,198 µg/mL
C[C@H]1OC[C@@H](c2ccc(-c3ccccn3)cc2)N[C@@H]1c1ccc(F)cc1Cl,"shake-flask, LC-HRMS",aqueous buffer,"16 h, pH 6.8",,solubility,< 4 µM
